Results collected from several papers.
Each numbered part is a random draw from the data of one study; scales do not carry over between parts. Changes are numbered by the printed parent chain.

Series 1
Target: HLA class I histocompatibility antigen, A alpha chain, allele A*80:01 (Homo sapiens, UniProt P04439)
Observed: peptide-MHC binding
Form: peptide
Concentration: concentration not given
Quantity: binding
FTDNNELEF: inactive
CLVSGLSSL: inactive
MPMSMPIPM: inactive
VTDTALAYF: inactive
HVTQHWPQL: inactive
SQVRVPTVF: inactive
ITMYVAFEQ: inactive
GIALAVPCV: inactive

Series 2
Target: CCNA2, cyclin fold, Cln2 fusion (human)
Method: yeast growth competition, sequencing
Medium: yeast
Setting: strong parent motif
Reference: not given
Direction: higher = stronger binding
Quantity: normalised enrichment score
Parent: viral docking peptide; KKVKRRLFETREL
KKVKRRLFEAREL [T10A]: 5.93
KKVKARAFETREL [R5A L7A]: 0.731
KKVKRRLLETREL [F8L]: 1.14
KAVKRRLFETREL [K2A]: 5.74
KKVKARLFETREL [R5A]: 1.8
KKVKRRLAETREL [F8A]: 0.51
KKAKRRLFETREL [V3A]: 5.16
KKVKRRLFETAEL [R11A]: 6.03

Other studies, line by line
CCOc1ccc(Nc2c3c(nc4ccccc24)CCC3)cc1
inhibition (Leishmania donovani; parasite growth; 16.66 µM, promastigote): 62%

CN(C)C(=O)Cn1cc(-c2nc(C3(c4ccc(-c5cnc(N)nc5)cc4)CC3)no2)cn1
inhibition (D(1B) dopamine receptor (DRD5, Homo sapiens, UniProt P21918); cell-free assay; 10 µM): 22.8%

A few entries again (series 1):
HVTQHWPQL: inactive
GIALAVPCV: inactive
